Measured values pooled from the literature.
A part holds a random share of what one study measured. Changes are numbered by the printed parent chain.

Series 1
Target: ABI1, truncated, D143A, DHFR fusion (Arabidopsis thaliana)
Method: DHFR PCA, deep sequencing
Matrix: yeast
Setting: methotrexate growth selection, single substitutions
With: (+)-ABA 4.8 µM
Relative to: wild-type fitted maximum
Reading: higher = stronger binding
Quantity: relative binding score
Starting sequence: PYL1, truncated, DHFR fusion (Arabidopsis thaliana); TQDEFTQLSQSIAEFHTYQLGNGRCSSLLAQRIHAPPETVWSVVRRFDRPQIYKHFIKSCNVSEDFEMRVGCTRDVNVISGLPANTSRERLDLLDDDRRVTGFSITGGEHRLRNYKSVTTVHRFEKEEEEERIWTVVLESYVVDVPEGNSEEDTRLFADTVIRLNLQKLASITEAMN; partner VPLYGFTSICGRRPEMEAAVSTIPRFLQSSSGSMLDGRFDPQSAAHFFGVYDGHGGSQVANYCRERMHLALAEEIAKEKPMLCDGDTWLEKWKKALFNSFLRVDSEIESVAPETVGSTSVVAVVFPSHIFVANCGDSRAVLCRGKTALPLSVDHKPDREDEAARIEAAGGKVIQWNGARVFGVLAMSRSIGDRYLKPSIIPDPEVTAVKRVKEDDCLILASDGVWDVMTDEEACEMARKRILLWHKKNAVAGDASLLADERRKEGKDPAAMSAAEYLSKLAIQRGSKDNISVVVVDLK
S42W: 15.1%
W41L: 16.8%
V145P: 7.99%
G148K: 16%
H34C: 80.9%
F103M: 7.62%
I172G: 1.44%
E152P: 19.3%
E147N: 55.7%
Q31P: 1.27%
H122Y: 13.5%
H55E: 65.7%
D96I: -14.1%
E89D: 9.7%
C72R: 22%
A35K: -27.1%
T17W: 8.86%
F66S: 54.6%
I162R: -9.45%
R113G: 28.6%
Q7M: 76.7%
C60L: 1.74%
I12T: 2.68%
P146I: 6.11%
R155D: -16.4%

Series 2
Target: CCNF, cyclin fold, Cln2 fusion (human)
Method: yeast growth competition, sequencing
Matrix: yeast
Setting: strong parent motif
Relative to: not given
Reading: higher = stronger binding
Quantity: normalised enrichment score
Starting sequence: NPAT docking peptide (human); PCHRRVLCFDSTT; partner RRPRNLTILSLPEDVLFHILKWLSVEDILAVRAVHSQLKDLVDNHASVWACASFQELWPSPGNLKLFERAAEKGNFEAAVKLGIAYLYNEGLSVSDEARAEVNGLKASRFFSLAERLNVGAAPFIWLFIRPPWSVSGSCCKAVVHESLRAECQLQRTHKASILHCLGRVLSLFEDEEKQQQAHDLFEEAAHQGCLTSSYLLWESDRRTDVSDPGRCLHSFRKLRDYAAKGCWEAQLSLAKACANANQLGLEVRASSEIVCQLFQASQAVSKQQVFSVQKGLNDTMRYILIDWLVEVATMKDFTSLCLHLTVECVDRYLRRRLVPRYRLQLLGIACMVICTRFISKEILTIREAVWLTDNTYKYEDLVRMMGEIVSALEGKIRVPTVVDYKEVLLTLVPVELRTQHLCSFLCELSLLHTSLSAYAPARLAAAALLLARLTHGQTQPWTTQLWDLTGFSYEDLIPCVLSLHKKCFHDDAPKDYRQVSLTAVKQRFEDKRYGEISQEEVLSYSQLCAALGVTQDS
PCHRRVLAFDSTT [C8A]: 1.83
PCHRKVLCLDSTT [R5K F9L]: 0.614
PCHRRVLCADSTT [F9A]: 0.681
PCARRVLCFDSTT [H3A]: 8.53
PCHRAVACFDSTT [R5A L7A]: 0.471
PCHRRVLCFDATT [S11A]: 3.8
PCHRKVLCFDSTT [R5K]: 2.47
PCHRRALCFDSTT [V6A]: 5.25
PAHRRVLCFDSTT [C2A]: 4.76
PCHARVLCFDSTT [R4A]: 4.06

Series 3
Target: RNA binding protein fox-1 homolog 2, RRM domain, GST-SBP tag (RBFOX2, Homo sapiens, UniProt O43251-10, residues 100-194)
Method: RNA Bind-n-Seq
Form: RNA
Matrix: in vitro
Concentration: 365 nM
Setting: natural RNA segment, single round, ends assumed
Relative to: no-protein control
Reading: higher = stronger binding
Quantity: RBNS enrichment (R)
All sequences stand within: GGGAGUUCUACAGUCCGACGAUC … UGGAAUUCUCGGGUGCCAA
Target sequence (chain): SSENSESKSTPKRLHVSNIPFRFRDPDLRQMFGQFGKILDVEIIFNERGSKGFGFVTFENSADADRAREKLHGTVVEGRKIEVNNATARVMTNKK
AAAACAAAACAGAAAUCAAAAGUACACUCAAGUUCUUGUCCUGUAUCAAAUAUCCCUAGGUCAUCUGCCACCCACUUUCCAAGACCUUUCUCCUACUCAACCAGGAAGUC: 0.368
GGAGCCUAUUUCUAGCCACUCCUGUUGACAGUGCACCUGAAGGGCUGGGAUGCGUUUUUCUUGGUGUUGCAUGCUCACAACUCUGCUGACAUUGGGAACUUAUGAGAGAG: 17.2
CUGCAGAUAUGUGUUCCCGUGUAAGCCAGUUUUCCCCUUUUACUCAGACUGAUUUCACCUAGAUUGUCACGGUUUCCUUCAUGUUAACUUUGCGUGACUUUGUUCUUCCU: 0.698
CUCAGAUGUAACUGGUAAAGGCUGAUUUCUAAAUUUUCUGUAAUUGCAGCAACCUUUCUCUCCUGUCUACCCUUUUAGUUUACUGUAUGCCAUGGUUUUGUUUUGGUUAC: 0.826
UCCGUAUUGUAAAAUUUUCAUUUUCAGUAACACCCAGUAGAUAAUUUUUCAAAGACGAUCCUCCUCAAACACCCAUUUUUACAAUAUCUCUAUUGUAAAAUUUCAUUUUC: 0.575
UACAUUUUGUUGGGAAGCUGGAUAAGUUUUAGGUGCAGGACCCCAAAUGUUCUGAGACCUUUGGGGCCAUUUAUUACUUUGUACAAGCCCAAUAAUCCUCUCUUUUCUGC: 0.328
ACACACAUUAUGGCUGUAAAUACCUGGCUCCUGCCAGCAGCUGAGCUGGGUAGCCUCUCUGAGCUGGUUUCCUGCCCCAAAGGCUGGCUUCCACCAUCCAGGUGCACCAC: 0.34
GCAUGCCGCCACACCCGACUAAUUUUUUGUAUUUUUAGUAGAGUCAGGGUUUCACCGUGUUGCCCAGGCUGGUGUCGAACUCCUGACCUCAGGUGAUCUGCCCACCUCAG: 3.31
ACUUUUUAAAGAAAAAAAAACAUGAGGGAAUAAAAGAAAUUCCUAUCAAAAAUCAAAGUGAAAUAAUACCAUCCAGCACUUAACUCUCAGGUCCCAACUAAGUCUGGCCU: 0.727
UGGUGUGGUUGGGUCAAGGCCCCAACACCAUGGCUGCCAGCUUCCAGGCUGGACAAAGCAGGGGGCUACUUCUCCCUUCCCUCGGUUCCAGUCUUCCCUUUAAAAGCCUG: 0.276
UGUCCUCAAUUCGUGUGACCAUAAGAUACUGAUAGCAUUGAGUCUUGAAAUGAUUUAAUAAUAUGAGUGAGGAUUUGCUUUCUCCAUUAGAGCAUUAAGCUAAAACUAUC: 0.566
UUCAUGAAGGGAGUCAUGGGGAAUUCCUGAAAAUUUUCUUCCUUCUGCAGACAGUUGGAUGAGUCCCUUAGAGAAGGCAUCCAGAGACAUAACUAAACUGAAUAUCAUCC: 0.279

Series 4
Target: FOSB, bZIP domain (human)
Method: DHFR protein complementation
Matrix: yeast
Setting: single substitutions, most at no-binding floor
Relative to: wild-type JUN-FOS pair
Reading: higher = stronger binding
Quantity: binding fitness
Starting sequence: JUN, bZIP domain (human); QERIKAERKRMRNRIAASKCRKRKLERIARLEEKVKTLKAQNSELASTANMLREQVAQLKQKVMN; partner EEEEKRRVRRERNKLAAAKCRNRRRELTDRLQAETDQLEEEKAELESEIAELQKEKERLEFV
S43Q: -0.0165 natural log
I28G: -0.283 natural log
L31W: -0.368 natural log
E33L: -0.124 natural log
V35H: -0.464 natural log
E32A: 0.175 natural log
A49R: 0.134 natural log
L45H: -0.965 natural log
L31V: -0.708 natural log
A46D: -0.813 natural log
K34R: 0.0707 natural log
Q55N: -0.495 natural log
A57S: -0.249 natural log
N42F: -0.965 natural log
A40C: -0.249 natural log
T37M: 0.308 natural log
A29G: -0.188 natural log
K39F: -1.03 natural log

Series 5
Target: Histone acetyltransferase KAT6A, both winged helices, GST fusion (KAT6A, Homo sapiens, UniProt Q92794, residues 1-181)
Method: protein binding microarray
Form: double-stranded DNA, one strand shown
Matrix: in vitro
Concentration: not given
Setting: 8-mer, flanks averaged, mean of 2 arrays, mostly near background
Relative to: not given
Reading: higher = stronger binding
Quantity: E-score
Target sequence (chain): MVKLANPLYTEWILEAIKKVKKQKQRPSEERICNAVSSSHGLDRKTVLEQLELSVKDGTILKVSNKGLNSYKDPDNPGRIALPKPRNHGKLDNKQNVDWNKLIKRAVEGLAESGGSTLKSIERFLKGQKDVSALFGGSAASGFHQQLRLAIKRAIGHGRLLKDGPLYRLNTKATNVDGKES
CCCGTTCC: 0.11
AGCTAATA: -0.0991
ACTGTCGA: -0.117
AAACTAGG: -0.161
CGGATTTA: 0.0883
CTCGGATA: 0.07
AAGCCAGC: -0.177
AAGTACTC: -0.0709
GCTTGAAA: -0.125
CACGGTTA: 0.156
CAACGTTG: 0.0917
TCATCCCA: -0.24
CGGCCTGA: 0.137
CCCTCGGA: 0.0718
GAGGTCTA: -0.00869
ACTACGCG: 0.26
GGCTAGCA: -0.0936
GGGCTTAC: -0.101
ATTGTCAA: -0.087
CAATGGGC: -0.108
CACCACTA: -0.223
GTTTAGCA: -0.0199
CCGGCGGC: 0.363
CAGCTAAC: -0.186
ACATGTAG: -0.0956

Series 6
Target: RING finger protein unkempt homolog, zinc fingers 1-6, GST-SBP tag (UNK, Homo sapiens, UniProt Q9C0B0, residues 30-357)
Method: RNA Bind-n-Seq
Form: RNA
Matrix: in vitro
Concentration: not given
Setting: RNA with constant flanks, human and mouse sites, ends assumed
Relative to: input RNA pool
Reading: higher = stronger binding
Quantity: bound/input enrichment
All sequences stand within: GGGAGUUCUACAGUCCGACGAUC … CAACAGAGGAUUGAGCAUCA
Construct (chain): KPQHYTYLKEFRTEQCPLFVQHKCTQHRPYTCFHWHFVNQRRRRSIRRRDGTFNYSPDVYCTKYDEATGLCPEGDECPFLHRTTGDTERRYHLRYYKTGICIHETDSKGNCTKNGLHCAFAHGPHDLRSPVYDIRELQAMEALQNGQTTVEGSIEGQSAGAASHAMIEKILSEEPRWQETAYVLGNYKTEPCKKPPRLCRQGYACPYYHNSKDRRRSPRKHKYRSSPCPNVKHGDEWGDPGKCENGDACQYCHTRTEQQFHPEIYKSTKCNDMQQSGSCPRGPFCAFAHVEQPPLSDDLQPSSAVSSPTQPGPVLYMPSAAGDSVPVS
CAGAAGUAUGUUGGUGGGAAUCAACCUGAUCCUGGCCCUUUCUUCUUCUCCAUUUUCAUUCGUAAUCCCCCUCAGCAGAUCUUUACAAGCAGUUUCCUUAUAGCUCAUGUAUCUUUAGGU: 0.444 ratio
CAGACGGAGAAAGAGGAAAAAGAAGAAGCAAGAUCAAAAUACAAAGAAGCUAAGGAAUCUUUUCAGCGUUUUCUUGAAAAUCAUGAGAAAAUGACUUCCACAACCAGAUACAAAAAAGCU: 0.357 ratio
CUGUUGUAUGAAAGGAGAGAAGGAUAACAAAUUGCGGUUUUCCCUGGUAAACACAGUAAGUAGUAAACUCAGGAUUCAAAACCAAAUAUACACACCAAAUCCACUAUGUAAUAUUAAGUU: 0.32 ratio
CUAUGUGUAAAAGUGGACAGGACUCCGAAAGGCACACAGGGAGUUGUCACAAAUUUUGAAAUAUUCCGAAUGAGGGAGAAGCAGGUACCUGUUGAUGUUGUUGAGAUGAAAGAAACCAUC: 0.186 ratio
UGUUUCUUCUGCAUCUGGAAGGGCGUCAGGUCCACUGGGAAGGUCGUCUACUUCACAGCCACUUUUCCAUUCGCCAUGCUCCUGGUGCUGCUGGUCCGAGGGCUGACGCUGCCGGGCGCG: 0.106 ratio
GGAACGUCAUUUGUCAUGGAUGUUCUACGCCCACAGAUUGUAACGUUCGAUGGACGGAAUUAUAGAAAGAAUCCCAUCCAGGAGAAACAGUACCAACAUGAAGAAGACGAGGAUUUCUAU: 0.172 ratio
GGCUGGCCCCAGUCCCAAGGAACAAGAGAUGGUCAAGUCGCUAGAGACAUAUCAGGGGACAUUAGGAUUGGGGAAGACACUUGACUGCUAGAAUCAGAGGUUGGACACUAUACAUAAGGA: 0.413 ratio
AUCAGAAAUCUUUUUAGAGAAGCAAAAGCAAAUGCUCCUUGUGUUAUAUUCAUCGAUGAAUUAGAUUCUGUUGGUGGAAAGAGAAUUGAAUCUCCAAUGCACCCGUAUUCAAGGCAGACG: 0.6 ratio
ACAGAAAGUUAUAGAGAUUAUAUUGUGAUGCUGGAACUUGGAGUGAGACACACAUCAUUUGGCAUUUGAGUUGAAUGGUAAUUCACAGUAAUGCUGCCGUUGUUCGGGACUUAAAGACAC: 1.98 ratio
CAUGGUGGAAAGAGAAAAUGGACUUGCUUUAUCUGUGGAAAAUCAGUACGAGAAAGAACUACUUUGAAAGAACAUUUGAGAAUCCACAGUGGAGAAAAGCCUCACCUUUGUAGUAUUUGU: 0.206 ratio
GGCAUGUUGGGUUUGCAGGACUGACCCACACAGUCUCUGCAGGUGGCAGCUCUCUUGUCUGUUUCUUGCUGUCGAGAGGGUGUAAGUGUUCCACCAGCCCGCUGAGUGUGCACGAAAUGU: 0.0838 ratio

Excerpt of the above (series 4):
V35H: -0.464 natural log
A49R: 0.134 natural log
E33L: -0.124 natural log
A46D: -0.813 natural log
Q55N: -0.495 natural log
K39F: -1.03 natural log
A29G: -0.188 natural log
I28G: -0.283 natural log
L45H: -0.965 natural log
K34R: 0.0707 natural log
S43Q: -0.0165 natural log
L31W: -0.368 natural log
A57S: -0.249 natural log
A40C: -0.249 natural log
E32A: 0.175 natural log
